Measurements of several laboratories.
A part holds a random share of what one study measured. Changes are numbered by the printed parent chain.

Block 1
Target: Prothrombin, mature alpha-thrombin (F2, Homo sapiens, UniProt P00734)
Method: aptamer microarray, sandwich
Form: DNA with 2'F-ANA
Matrix: in vitro
Concentration: 200 nM
Notes: whole 15-mer aptamer, many near background
Added: Cy3 exosite-II aptamer, 400 nM
Reading: higher = stronger binding
Sequence: GGTTGGTGTGGTTGG
Modification | mean fluorescence intensity
2'F-ANA at 2 4 5 8 10 11 13 14 | 40.7 a.u.
2'F-ANA at 1 5 6 7 9 13 14 | 45.4 a.u.
2'F-ANA at 5 6 11 12 13 15 | 80.2 a.u.
2'F-ANA at 3 5 6 8 10 11 15 | 52.9 a.u.
2'F-ANA at 1 3 4 6 8 10 11 12 14 15 | 51.1 a.u.
2'F-ANA at 1 4 9 11 12 13 15 | 153 a.u.
2'F-ANA at 6 10 11 12 14 15 | 109 a.u.
2'F-ANA at 1 2 3 4 7 12 13 15 | 283 a.u.
2'F-ANA at 2 3 4 5 6 7 8 11 12 13 | 108 a.u.
2'F-ANA at 2 5 6 7 9 10 13 | 44.8 a.u.
2'F-ANA at 2 3 4 5 7 10 11 13 | 48.8 a.u.
2'F-ANA at 1 5 9 11 15 | 49.8 a.u.
2'F-ANA at 1 2 3 4 6 7 12 | 338 a.u.
2'F-ANA at 1 3 6 8 9 10 11 13 15 | 191 a.u.
2'F-ANA at 2 3 5 8 9 10 11 13 14 | 46.2 a.u.
2'F-ANA at 3 4 6 9 10 12 13 14 | 281 a.u.
2'F-ANA at 1 4 5 7 8 9 10 12 13 14 15 | 50.8 a.u.
2'F-ANA at 6 8 10 13 15 | 146 a.u.
2'F-ANA at 1 2 4 8 11 12 13 14 | 55.9 a.u.

Block 2
Target: Interferon regulatory factor 5, full length, phosphomimetic (IRF5, Homo sapiens, UniProt Q13568-2, residues 1-514, K96S/S451D/S453D/S456D/S462D)
Method: protein-binding microarray
Form: double-stranded DNA, one strand shown
Matrix: in vitro
Concentration: 250 nM
Notes: 60-bp whole probe
Added: salmon DNA 0.4 mg/ml
Relative to: random background probes
Reading: higher = stronger binding
Constant ends, left off below: GCCTAGCAC … GTCTTGATTCGCTTGACGCTGCTG
Sequence | log fluorescence
GTAAACCATCCAAATGTTATGTGCTAG | 0.434 z-score
TAAAACATCATTTTTCCCTCGTGCTAG | 0.823 z-score
CTAATTAGAATTTTCATTAAGTGCTAG | 1.15 z-score
TTAGGACTGGGTTTCGATTAGTGCTAG | 6.88 z-score
GACGGTATCGGGACTGGGGCCGTGCTA | 1.07 z-score
TTAGATTTGGGGTATCGATTAGTGCTA | 2.35 z-score
TTAGATATCAGTTTCGACTAGTGCTAG | 8.56 z-score
TTAGGTATCCTACGGCTTTAGTGCTAG | -0.151 z-score
CACGGTCTCCTACTGCTGACGTGCTAG | -0.388 z-score
TTAGGTCTCGGTATCCGTTAGTGCTAG | 0.767 z-score
GACGGACTGCTTATCCAGACGTGCTAG | -0.423 z-score
GACGGACTGCAACTGCTGACGTGCTAG | -0.475 z-score
TCAGCTTTCCTGATGGTACTGTGCTAG | 0.0846 z-score
GACGGTTTCCTACTGCTGATGTGCTAG | 0.393 z-score
TTAGGTCTGGGTTTCGGTTAGTGCTAG | 7.74 z-score
GACGGTTTCGGGACTGGGGACGTGCTA | 4.6 z-score
TTAGGAGTCAACTCTCTAATTGTGCTA | -0.00148 z-score
GACGGACTGGGTCGCGGGACGTGCTAG | -0.654 z-score
TCACTCATACATCTGGGACTGTGCTAG | -0.0689 z-score
GACGATATCGGGTTTCTAGACGTGCTA | 2.06 z-score
TTAGAAGTGAGTCTCGATTAGTGCTAG | 0.672 z-score
GCCGGTCTCGGTTTCGGGACGTGCTAG | 3.9 z-score
GTAGGTATCCTTTTCCTTTAGTGCTAG | 0.562 z-score
TCAAAGCAAAAATGATTACTGTGCTAG | 0.247 z-score
TCAAGCTTCCATTTTCTACTGTGCTAG | 0.971 z-score

Block 3
Target: RNA binding protein fox-1 homolog 2, RRM domain, GST-SBP tag (RBFOX2, Homo sapiens, UniProt O43251-10, residues 100-194)
Method: RNA Bind-n-Seq
Form: RNA
Matrix: in vitro
Concentration: 365 nM
Notes: natural RNA segment, single round, ends assumed
Relative to: no-protein control
Reading: higher = stronger binding
Constant ends, left off below: GGGAGUUCUACAGUCCGACGAUC … UGGAAUUCUCGGGUGCCAA
Residues (chain): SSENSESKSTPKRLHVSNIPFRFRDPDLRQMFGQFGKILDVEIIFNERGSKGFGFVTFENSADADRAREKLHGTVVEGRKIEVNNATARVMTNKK
Sequence | RBNS enrichment (R)
AACUGAAUAAAUAUCAGUUAAAAGAUUGCCAGCAUGGUUACAGGUAAACUGAUUUUCAGAAUUCACUGAACUACUAAAUGUGGGAUUGGAUAAUAGACUUGGAGUGCCGC | 2.26
UCUACCGUGCAGGGACUGGGCAAGCACAGCUUACUGCUAUAAUUGGGUAUAUAAGGCUUAAGAAUUUGGUCUAUGCCAGGCGUGGUGGCGCAUGCCUUUAAUCCCAGCAC | 0.58
GAGCCAAGUGGGAGGGGAAUGUGCCUUCCCUUCACAGCAGGAGCCAAAAGGAGGCUCCACGGGCCUCCAGGCUGCCGUGAGAAACCCAUGACACAUGCCUCUGGCAAAGC | 0.238
CUACAAAGAUAUAUGUCUAAAGUUGGAAAAUCAACUUCUGCUUUCUCAGAAUGGGAGACCGAGCGCAGGUUAGGCACCCCUCCCCCUUGCAUCUGUGAGUCCCUCUGGGC | 0.727
UAAUUUCAGCUGACUUUCCUCUGACUGCUUUGUCUACUCAGUUAGAAAUAUUCAGAUACAAGUUUUAUCUCAGGUGAAUAUCCUUGUAUCGUUUUGCUUUGCUGACAUGU | 0.594
ACUAGGACUAUGACCUCCACGGCGGCUGUUUAGGUCUCGACUUACAUCAGAAUCUUGCACAGCAUUGCAAAAUCCCAGUGCUCCCUCUAGGACACACUGACCAAAAUAUG | 0.194
CUAAGCACGAAUAAGAUAUCUGCUUACAUUAAUUUUUAUAAAGUCAUUCAGUCAGAAUUUAGGAUUCAGUCAUUGGCAGGUAUCUAUGCAUUCGUAGAACUUCUAAGGGU | 2.63
CUGGGCCAAGUCAGUUGGAGGCUGAGGCUGCAAGGCCAGGUGUGUAGCCCUUUUGAUCAAAUUGGUCUUCACCUGCUUGCCUCUGAGGCUCCAUCCUUCUACUUCAACCC | 0.301
UAGAAAAAAAAGGAGUAAAAGGGGCGGGUUUGUUUUUUGAAGAACUGUCUUGGAUACCUAUUUAAAUGUGUGUUCUGUUUUGUUUUUUAACGAUUUUUAAAUAACGUCUG | 0.904
UGAGGCUCCAGCCUGUUUAGUGCAUGGGCAGCCAUCCUGGCAGCCAAGACAUCUCUGACAGAAGUGUUUUUGUUUGGUUUUGUUUUUUAAGAUUAUGUAUUUGCUACAAA | 8.36
GUGCUGGUCCAUCGUGAGUAAGAAGUCGGACUCCCUGUUCCUAGGAAGCUGCUGUGCUUGUUGUUACUGAAUGUUGGAGUAGAUCCUGAUCUGUGAUUGCGGAUUUUCGG | 3.97
CAAAAAAACUUCUGCUUUGUCUUUGGUCAUUAGGGAGCUCUAAUGUGUGUUUGUGGCUCCAAGUUACAUUUUGUGUUUCAUUGAUCUAUAUGUAUAUAUGUGAUGUUUUC | 0.701

Block 4
Target: CCND1, cyclin fold, Cln2 fusion (human)
Method: yeast growth competition, sequencing
Matrix: yeast
Notes: strong parent motif
Relative to: not given
Reading: higher = stronger binding
Parent: PKN2 docking peptide (human); VSAVQKLDFSDTM; partner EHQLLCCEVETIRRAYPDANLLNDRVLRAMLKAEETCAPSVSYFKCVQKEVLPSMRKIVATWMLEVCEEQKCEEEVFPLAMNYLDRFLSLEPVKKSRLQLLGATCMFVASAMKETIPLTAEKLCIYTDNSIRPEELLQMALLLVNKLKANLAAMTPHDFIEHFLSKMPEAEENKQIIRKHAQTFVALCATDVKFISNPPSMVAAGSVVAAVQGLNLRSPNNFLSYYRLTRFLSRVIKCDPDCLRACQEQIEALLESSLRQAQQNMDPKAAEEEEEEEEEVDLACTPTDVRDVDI
Variant | normalised enrichment score
A3W | 1.13
V1D | 0.95
T12H | 2.51
D11P | 1.2
S10I | 1.62
L7G | -0.236
F9A | 0.376
D8M | 0.983
M13R | 1.82
S10F | 1.03
V1Q | 2.03
D11R | 0.98
S2C | 1.76
M13F | 1.74
S2H | 1.72
L7T | -0.201
V4S | 0.508
D11F | 1.69
T12N | 2.27
F9L | 0.371
S10G | 1.91
S10L | 1.12
T12S | 2.56
V4L | 0.673
A3D | -0.0514

Repeated from above (block 2):
Sequence | log fluorescence
TTAGATTTGGGGTATCGATTAGTGCTA | 2.35 z-score
TTAGATATCAGTTTCGACTAGTGCTAG | 8.56 z-score
TTAGGTATCCTACGGCTTTAGTGCTAG | -0.151 z-score
CACGGTCTCCTACTGCTGACGTGCTAG | -0.388 z-score
TTAGGTCTCGGTATCCGTTAGTGCTAG | 0.767 z-score
GACGGACTGCTTATCCAGACGTGCTAG | -0.423 z-score
GACGGACTGCAACTGCTGACGTGCTAG | -0.475 z-score
TCAGCTTTCCTGATGGTACTGTGCTAG | 0.0846 z-score
GACGGTTTCCTACTGCTGATGTGCTAG | 0.393 z-score
TTAGGTCTGGGTTTCGGTTAGTGCTAG | 7.74 z-score
GACGGTTTCGGGACTGGGGACGTGCTA | 4.6 z-score
TTAGGAGTCAACTCTCTAATTGTGCTA | -0.00148 z-score
